Measurements gathered from unrelated publications.
Compare with care: the assays were run in different laboratories. ± gives the spread as reported. Values after ≈ are worked out from the molar mass of the structure shown.
Organism: Pseudomonas aeruginosa

COc1ccc(-c2ccn(CC[C@](C)(C(=O)NO)S(C)(=O)=O)c(=O)c2)c(F)c1 — ED50 (PA-1950, mouse acute pneumonia model; 48 h): < 25 mg/kg
CC[P+](CC)(CC)[Au-][S][C@@H]1O[C@H](COC(C)=O)[C@@H](O[C@H]2O[C@H](COC(C)=O)[C@@H](OC(C)=O)[C@H](OC(C)=O)[C@H]2OC(C)=O)[C@H](OC(C)=O)[C@H]1OC(C)=O — fold activity enhancement (NCTC 13437; concentration not given; reference: auranofin): 2 to 4
CCc1ccccc1NC(=O)CSc1nc2ccccc2c(=O)n1-c1ccc(S(N)(=O)=O)cc1 — inhibition zone (microbial growth, well diffusion; ATCC27853; 500 µg/mL, 24 h): 25 mm
CC[C@@H](C)[C@@H](NC(=O)[C@@H](C)NC(=O)[C@@H](CCCCN)NC(=O)[C@@H](CC(C)C)NC(=O)[C@@H](C)NC(=O)[C@H](NC(=O)[C@@H](CCCCN)NC(=O)[C@@H](CC(C)C)NC(=O)[C@H](NC(=O)[C@@H](CCCCN)NC(=O)[C@@H](CCCCN)NC(=O)[C@@H](CCCCN)NC(=O)[C@@H](C)NC(=O)[C@@H](CCCCN)NC(=O)[C@@H](CO)NC(=O)[C@@H](Cc1ccccc1)NC(=O)[C@H](NC(=O)[C@@H](CCCCN)NC(=O)[C@@H](CC(C)C)NC(=O)[C@@H](Cc1ccccc1)NC(=O)[C@@H](CO)NC(=O)[C@@H](CCCCN)NC(=O)[C@@H](Cc1c[nH]c2ccccc12)NC(=O)[C@@H](CCCCN)NC(C)=O)[C@H](C)O)C(C)C)[C@H](C)O)C(=O)N[C@H](CO)C(=O)N[C@H](CCCCN)C(N)=O — MIC geometric mean (six isolates; 24 h, 37 °C): 1.6 µM (≈ 4.88 µg/mL)
COc1cc(OC)c2c(c1)C(=O)c1cc3oc(=O)cc(-c4ccc(Cl)cc4)c3c(O)c1C2=O — zone of inhibition (MTCC 2453; 100 µg/disc): 8 mm
CC[C@@H](C)[C@@H](NC(=O)[C@@H](CCCNC(=N)N)NC(=O)[C@@H](CCCNC(=N)N)NC(=O)[C@@H](Cc1c[nH]c2ccccc12)NC(=O)[C@@H](CCC(N)=O)NC(=O)[C@H](N)C(C)C)C(=O)N[C@H](CCCNC(=N)N)C(=O)N[C@@H](C(=O)N[C@H](Cc1c[nH]c2ccccc12)C(=O)N[C@@H](C(=O)N[C@@H](C(=O)N[C@H](CCCNC(=N)N)C(N)=O)[C@H](C)CC)C(C)C)C(C)C — survival (PAO1, Galleria mellonella larvae; proleg injection, 20 µg per larva, 48 h post infection, 37 °C, dosed 1 h after infection): 30 ± 6%
CCOC(=O)c1cnc(N/N=C/c2c(-c3ccc(OC)cc3)nc3ncccn23)s1 — inhibition zone (microbial growth, well diffusion; ATCC27853; 100 µg/mL): 16 mm
CCCCCCCCCC(=O)NCCCC[C@H](NC(=O)[C@H](CC(C)C)NC(=O)[C@H](CCCCN)NC(=O)[C@H](CCCCNC(=O)[C@H](CC(C)C)NC(=O)[C@H](CCN)NC(=O)[C@H](CCCCNC(=O)[C@H](Cc1ccccc1)NC(=O)[C@@H](N)CCCN)NC(=O)[C@H](Cc1ccccc1)NC(=O)[C@@H](N)CCCN)NC(=O)[C@H](CC(C)C)NC(=O)[C@H](CCN)NC(=O)[C@H](CCCCNC(=O)[C@H](Cc1ccccc1)NC(=O)[C@@H](N)CCCN)NC(=O)[C@H](Cc1ccccc1)NC(=O)[C@@H](N)CCCN)C(N)=O — MBIC (biofilm formation; PAO1; 24 h, 37 °C): 8 µg/mL
Cn1c(SCCN2CCCCC2)nnc1C12CC3CC(CC(C3)C1)C2 — inhibition zone diameter (IFO 3448; 200 µg/disc, 24 h, 37 °C): < 10 mm
O=C(Cc1ccc(Br)cc1)N[C@H]1CCOC1=O — elastase inhibition (elastin-Congo red; PAO1 wild type; 100 µM): < 25%
O=c1cc(-c2ccccc2)oc2cc(O)cc([O][Ga+][O]c3cc(O)cc4oc(-c5ccccc5)cc(=O)c34)c12 — biofilm inhibition (crystal violet; 0.08 µM, 48 h, static; reference: negative control): ~70%
CCCCCCCCCCCCCCC(=O)N[C@@H](CCCCN)C(=O)N[C@@H](CCCCN)C(=O)N[C@@H](CCCCN)C(=O)N[C@@H](CCCCN)C(=O)N[C@@H](Cc1c[nH]cn1)C(N)=O — MBC (ATCC 27853): 128 µg/mL (≈ 144 µM)
Cc1cccc2c3c(ccc12)C1=C(C(=O)C3=O)[C@@H](C)CO1 — inhibition (cytotoxicity; J774.A1, PAO1; 100 µM, 5 h, serum-free medium): < 70%
CC(=O)N[C@H](CCCCN)C(=O)N[C@H](CC(C)C)C(=O)N[C@H](CCCCN)C(=O)N[C@H](CO)C(=O)N[C@H](CC(C)C)C(=O)N[C@H](CC(C)C)C(=O)N[C@H](CCCCN)C(=O)N[C@@H](C(=O)N[C@H](CC(C)C)C(=O)N[C@H](CO)C(=O)N[C@H](CCCCN)C(=O)N[C@H](C)C(=O)N[C@H](CCCCN)C(=O)N[C@H](CCCCN)C(=O)N[C@H](CCCCN)C(=O)N[C@H](CCCCN)C(=O)N[C@H](CC(C)C)C(=O)N[C@H](CCCCN)C(=O)N[C@@H](C(=O)N[C@H](CC(C)C)C(=O)N[C@H](CC(C)C)C(=O)N[C@H](CCCCN)C(=O)N[C@H](C)C(=O)N[C@H](CC(C)C)C(=O)N[C@H](CO)C(=O)N[C@H](CCCCN)C(N)=O)[C@H](C)O)[C@H](C)O — MIC geometric mean (six isolates): 1.5 µM (≈ 4.47 µg/mL)
CCCCCCCCCc1nc2cc(Cl)ccc2c(=O)n1CCCN — reduction in biofilm formation (confocal microscopy; PAO1, RPMI; 100 µM, 24 h): ~50%
COc1cc(NC(=O)CSc2nc3ccccc3c(=O)n2-c2ccc(S(N)(=O)=O)cc2)cc(OC)c1OC — inhibition zone (microbial growth, well diffusion; ATCC27853; 500 µg/mL, 24 h): 18 mm
CCCCCCC[C@@H](O)CC(=O)N[C@H](CCN)C(=O)N[C@H]1CCNC(=O)[C@H](CC(C)C)NC(=O)[C@H](CCN)NC(=O)[C@H](CCN)NC(=O)[C@H](CC(C)C)NC(=O)[C@@H](Cc2ccccc2)NC(=O)[C@H](CCN)NC1=O — log10 CFU reduction (static time-kill; FADDI-PA070 polymyxin-resistant; 4 µg/mL, 2 to 6 h; reference: control): ~4 log10 CFU/mL
CC(C)C[C@H](NC(=O)[C@@H]1CCCN1C(=O)[C@H](CCCCN)NC(=O)C[C@@H]1O[C@@H](C)[C@@H](O)[C@@H](O)[C@@H]1O)C(=O)NCCCC[C@H](NC(=O)[C@H](CC(C)C)NC(=O)[C@@H]1CCCN1C(=O)[C@H](CCCCN)NC(=O)c1ccc(O[C@@H]2O[C@H](CO)[C@H](O)[C@H](O)[C@H]2O)cc1)C(=O)N[C@@H](Cc1ccccc1)C(=O)N[C@@H](CSSC[C@H](NC(=O)[C@H](Cc1ccccc1)NC(=O)[C@H](CCCCNC(=O)[C@H](CC(C)C)NC(=O)[C@@H]1CCCN1C(=O)[C@H](CCCCN)NC(=O)C[C@@H]1O[C@@H](C)[C@@H](O)[C@@H](O)[C@@H]1O)NC(=O)[C@H](CC(C)C)NC(=O)[C@@H]1CCCN1C(=O)[C@H](CCCCN)NC(=O)c1ccc(O[C@@H]2O[C@H](CO)[C@H](O)[C@H](O)[C@H]2O)cc1)C(N)=O)C(N)=O — MBIC (biofilm formation, WST-8 staining; PAO1; 24 h): inactive
Cc1cc(O)c2c(c1)C(=O)c1cc3oc(=O)cc(C)c3c(O)c1C2=O — zone of inhibition (MTCC 2453; 100 µg/disc): < 8 mm
CCCCCCCCCCCCCCCC(=O)NCCCC[C@H](N)C(=O)N[C@@H](CCCCN)C(=O)N[C@@H](CCCCN)C(=O)N[C@@H](CCCCN)C(=O)N[C@@H](CCCCN)C(=O)N[C@@H](CCCCN)C(N)=O — MBC (ATCC 27853): 128 µg/mL (≈ 125 µM)
Cn1c(C23CC4CC(CC(C4)C2)C3)nn(CCN2CCCCC2)c1=S — inhibition zone diameter (IFO 3448; 200 µg/disc, 24 h, 37 °C): < 10 mm
Cc1cc(O)cc2c1C(=O)c1c(cc3oc(=O)cc(C)c3c1O)C2=O — zone of inhibition (MTCC 2453; 100 µg/disc): < 8 mm
CC(=O)N[C@H](CCCCN)C(=O)N[C@H](CC(C)C)C(=O)N[C@H](CCCCN)C(=O)N[C@H](CO)C(=O)N[C@H](CC(C)C)C(=O)N[C@H](CC(C)C)C(=O)N[C@H](CCCCN)C(=O)N[C@@H](C(=O)N[C@H](CC(C)C)C(=O)N[C@H](CO)C(=O)N[C@H](CCCCN)C(=O)N[C@H](C)C(=O)N[C@H](CCCCN)C(=O)N[C@H](CCCCN)C(=O)N[C@H](CCCCN)C(=O)N[C@H](CC(C)C)C(=O)N[C@H](CC(C)C)C(=O)N[C@H](CCCCN)C(=O)N[C@@H](C(=O)N[C@H](C)C(=O)N[C@H](CC(C)C)C(=O)N[C@H](CCCCN)C(=O)N[C@H](C)C(=O)N[C@H](CC(C)C)C(=O)N[C@H](CO)C(=O)N[C@H](CCCCN)C(N)=O)[C@H](C)O)[C@H](C)O — therapeutic index (six isolates; reference: HC50 over geometric mean MIC): 170
O=c1cc(-c2ccc(O)cc2)oc2cc(O)cc([O][Ga+][O]c3cc(O)cc4oc(-c5ccc(O)cc5)cc(=O)c34)c12 — inhibition (pyoverdine secretion; 0.08 µM, 20 h): 52%
Cc1ccc2ccc3ccc(C)nc3c2n1.Cc1ccc2ccc3ccc(C)nc3c2n1.O.[Cl-].[Cl-].[Cl-].[Yb+3] — inoculation time (bacterial growth): 48 h

For quick reference, copied from above:
CCc1ccccc1NC(=O)CSc1nc2ccccc2c(=O)n1-c1ccc(S(N)(=O)=O)cc1 — inhibition zone (microbial growth, well diffusion; ATCC27853; 500 µg/mL, 24 h): 25 mm
CC[C@@H](C)[C@@H](NC(=O)[C@@H](CCCNC(=N)N)NC(=O)[C@@H](CCCNC(=N)N)NC(=O)[C@@H](Cc1c[nH]c2ccccc12)NC(=O)[C@@H](CCC(N)=O)NC(=O)[C@H](N)C(C)C)C(=O)N[C@H](CCCNC(=N)N)C(=O)N[C@@H](C(=O)N[C@H](Cc1c[nH]c2ccccc12)C(=O)N[C@@H](C(=O)N[C@@H](C(=O)N[C@H](CCCNC(=N)N)C(N)=O)[C@H](C)CC)C(C)C)C(C)C — survival (PAO1, Galleria mellonella larvae; proleg injection, 20 µg per larva, 48 h post infection, 37 °C, dosed 1 h after infection): 30 ± 6%
CCCCCCCCCC(=O)NCCCC[C@H](NC(=O)[C@H](CC(C)C)NC(=O)[C@H](CCCCN)NC(=O)[C@H](CCCCNC(=O)[C@H](CC(C)C)NC(=O)[C@H](CCN)NC(=O)[C@H](CCCCNC(=O)[C@H](Cc1ccccc1)NC(=O)[C@@H](N)CCCN)NC(=O)[C@H](Cc1ccccc1)NC(=O)[C@@H](N)CCCN)NC(=O)[C@H](CC(C)C)NC(=O)[C@H](CCN)NC(=O)[C@H](CCCCNC(=O)[C@H](Cc1ccccc1)NC(=O)[C@@H](N)CCCN)NC(=O)[C@H](Cc1ccccc1)NC(=O)[C@@H](N)CCCN)C(N)=O — MBIC (biofilm formation; PAO1; 24 h, 37 °C): 8 µg/mL
